Experimental data from different studies.
Compare with care: the assays were run in different laboratories. “And” joins repeats or separate records; there may be more than shown. ± marks the error that the study gave.
TDP1: Tyrosyl-DNA phosphodiesterase 1 (TDP1, Homo sapiens, UniProt Q9NUW8)
Sequence of UniProt Q9NUW8 (whole entry, looked up): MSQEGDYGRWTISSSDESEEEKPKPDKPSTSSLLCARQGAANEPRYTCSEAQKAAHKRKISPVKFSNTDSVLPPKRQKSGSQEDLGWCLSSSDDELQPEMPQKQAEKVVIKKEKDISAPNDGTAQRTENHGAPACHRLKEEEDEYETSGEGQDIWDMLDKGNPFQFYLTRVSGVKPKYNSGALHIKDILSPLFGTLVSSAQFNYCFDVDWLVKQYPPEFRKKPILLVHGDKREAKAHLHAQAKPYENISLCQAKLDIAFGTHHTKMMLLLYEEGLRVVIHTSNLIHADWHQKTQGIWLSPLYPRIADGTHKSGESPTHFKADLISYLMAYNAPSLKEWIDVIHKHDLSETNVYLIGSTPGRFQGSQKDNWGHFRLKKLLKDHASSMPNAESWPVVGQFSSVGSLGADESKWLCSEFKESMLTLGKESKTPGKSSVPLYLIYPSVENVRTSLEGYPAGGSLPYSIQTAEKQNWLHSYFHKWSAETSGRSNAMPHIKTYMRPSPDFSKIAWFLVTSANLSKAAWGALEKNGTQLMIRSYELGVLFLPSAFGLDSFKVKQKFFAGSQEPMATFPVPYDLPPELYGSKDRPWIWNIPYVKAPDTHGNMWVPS
Sequence of UniProt P0A7A9 (whole entry, looked up): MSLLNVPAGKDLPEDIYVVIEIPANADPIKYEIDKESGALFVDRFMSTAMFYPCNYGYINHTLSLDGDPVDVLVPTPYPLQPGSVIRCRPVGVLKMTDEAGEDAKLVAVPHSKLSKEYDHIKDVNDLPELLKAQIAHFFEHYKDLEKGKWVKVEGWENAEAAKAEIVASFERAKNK

SMILES	tested on	test	system	setting	scale	measurement	result
CC[C@H](C)[C@@H](C(=O)N[C@@H](CC(C)C)C(=O)N[C@@H](CO)C(=O)N[C@@H](CO)C(=O)N[C@H](C(=O)N[C@@H](CCC(=O)O)C(=O)N[C@H](C(=O)NCC(=O)N[C@@H](CO)C(=O)N[C@@H](CC(N)=O)C(=O)N[C@H](C(=O)N1C[C@H](O)C[C@H]1C(N)=O)[C@@H](C)O)C(C)C)[C@@H](C)O)N(C)C(=O)[C@H](C)NC(=O)CN(C)C(=O)[C@H](Cc1ccccc1)NC(=O)[C@H](CO)NC(=O)[C@H](CO)NC(=O)[C@H](CCCNC(=N)N)NC(=O)[C@H](CCC(N)=O)NC(=O)[C@H](CC(C)C)NC(=O)[C@H](Cc1ccccc1)NC(=O)[C@H](Cc1c[nH]cn1)NC(=O)[C@H](C)NC(=O)[C@H](CC(C)C)NC(=O)[C@H](CCCNC(=N)N)NC(=O)[C@H](CCC(=O)O)NC(=O)[C@@H](NC(=O)[C@H](C)NC(=O)[C@@H]1CSSC[C@H](NC(=O)[C@H](CCCNC(=N)N)NC(=O)CC[C@H](NC(=O)CCCCCCCCCCCCCCCCCCC(=O)O)C(=O)O)C(=O)N[C@@H](CCC(N)=O)C(=O)N[C@@H]([C@@H](C)O)C(=O)N[C@@H](C)C(=O)N[C@@H]([C@@H](C)O)C(=O)N1)[C@@H](C)O			male Sprague-Dawley rats	subcutaneous, 30 nmol/kg single dose, 24 h	reference: vehicle	food intake	69.9 ± 3.1%
CC(=O)[O-].O.[Cu+2].[O-]c1ccc(Br)cc1C=NCCN1CCOCC1		superoxide scavenging		80 µM		inhibition	16.3%
COCC1CN(C2CCN(c3cc(OC)c(Nc4ncc(Br)c(Nc5ccc6c(c5P(C)(C)=O)OCCO6)n4)cc3C)CC2)C1		RECIST 1.1	advanced EGFR-mutant NSCLC patients	150 mg once daily		objective response rate	16.7%
CCC(=O)N[C@@H](C)C(=O)OCC(=O)N[C@@H](C)C(=O)O			water	pH 7, 50 °C		chain scission rate constant	0.0492 h⁻¹
COc1ccc(C2CC(Nc3ccc(-c4ccc(NC5=NN(C(C)=O)C(c6ccc(OC)cc6)C5)cc4)cc3)=NN2C(C)=O)cc1 (stereo not shown)		carrageenan paw oedema	albino rat	oral, 25 mg/kg, 3 h		inhibition	30.3%
Cc1cccc(C)c1CNc1cc(C(=O)N2CCC2)cn2c(C)c(C)nc12		indomethacin-induced gastric lesions	rat	oral, 2 mg/kg	reference: vehicle	inhibition	91%
CN1CCC[C@]1(C)/C=C/S(=O)(=O)NC(=O)Nc1c2c(cc3c1CCC3)CCC2			human, whole blood ex vivo	400 mg single dose, 6 h, single ascending dose, added: LPS and ATP		IL-1β inhibition	99.5%
COC1CN([C@H]2CC[C@H]([C@@]3(C)Oc4c(Cl)cc(C(=O)NCc5c(SC)cc(C)[nH]c5=O)c(C)c4O3)CC2)C1		RNA-seq, measured: IL15 mouse homolog	mouse, HT-1376 xenograft, whole blood	dose not given	reference: vehicle	log2 fold change	0.374
COc1ccc(C(=O)CCc2cc(C(CCc3ccc(O)cc3OC)c3ccc(O)cc3)c(O)cc2OC)cc1 (racemic)			human blood	0.3 µM, added: A23187		15-HETE level	223 ± 52 pg/mL
CC(C)=CCc1cc(C(=O)/C=C/c2ccc(O)cc2)c(O)cc1O		phase I metabolism	mouse liver microsomes			Vmax	40.6 ± 3.2 pmol/min/mg
CCOC(=O)C12CC(N)(C1)C2			CD-1 mouse female	subcutaneous, 6.5 mg/mouse, 0 to 180 min	higher = stronger analgesia	tail flick latency AUC	484 a.u. and 398 a.u. and 204 a.u. and 380 a.u. and 532 a.u.
CC(C)(C)NCC(SS(=O)(=O)O)c1ccccc1 (stereo not shown)			mouse infected with Schistosoma mansoni	400 mg/kg, day 7 post-infection dosing once, perfusion day 52 post-infection		spleen weight	0.9 g and 0.8 g and 0.54 g and 0.58 g and 1.25 g
CCC(CC)n1c(Cc2ccco2)nc2cc(C(=O)N[C@@H](CC(=O)O)c3ccccc3)ccc21			mouse, HFpEF model (HFD plus L-NAME)	ip, 20 mg/kg/day, 2 wk		E/A and E/e' ratio	decreased
COc1ccc(Nc2nc(Cl)c(C=NOCc3ccc4nc(-c5ccccc5)c(Nc5ccc(C(=O)O)cc5)n4c3)s2)cc1 (mixture of isomers)	TDP1	enzyme activity, inhibitor		100 µM, unpurified compound		inhibition	35.1%
NC[C@@H](C(=O)Nc1ccc(-c2cn[nH]c2)cc1)c1ccccc1		tonometry	NZW rabbit, magnetic bead-induced ocular hypertension	ocular, 0.03%, 4 h		IOP	32.4 mmHg
CC[C@H](C)[C@@H](C(=O)N[C@@H](CC(C)C)C(=O)N[C@@H](CO)C(=O)N[C@@H](CO)C(=O)N[C@H](C(=O)N[C@@H](CCC(=O)O)C(=O)N[C@H](C(=O)NCC(=O)N[C@@H](CO)C(=O)N[C@@H](CC(N)=O)C(=O)N[C@H](C(=O)N1C[C@H](O)C[C@H]1C(N)=O)[C@@H](C)O)C(C)C)[C@@H](C)O)N(C)C(=O)[C@H](C)NC(=O)CN(C)C(=O)[C@H](Cc1ccccc1)NC(=O)[C@H](CO)NC(=O)[C@H](CO)NC(=O)[C@H](CCCNC(=N)N)NC(=O)[C@H](CC(N)=O)NC(=O)[C@H](CC(C)C)NC(=O)[C@H](Cc1ccccc1)NC(=O)[C@H](Cc1c[nH]cn1)NC(=O)[C@H](C)NC(=O)[C@H](CC(C)C)NC(=O)[C@H](CCCNC(=N)N)NC(=O)[C@H](CCC(=O)O)NC(=O)[C@@H](NC(=O)[C@H](C)NC(=O)[C@@H]1CSSC[C@H](NC(=O)[C@H](CCCNC(=N)N)NC(=O)CC[C@H](NC(=O)CCCCCCCCCCCCCCCCCCC(=O)O)C(=O)O)C(=O)NCC(=O)N[C@@H]([C@@H](C)O)C(=O)N[C@@H](C)C(=O)N[C@@H]([C@@H](C)O)C(=O)N1)[C@@H](C)O			male Sprague-Dawley rats	subcutaneous, 30 nmol/kg single dose, 24 h	reference: vehicle	food intake	76.8 ± 1%
COc1ccc2c(c1OC)C(=O)N(c1ccc(Cl)c(Cl)c1)C2	Inorganic pyrophosphatase (ppa, Escherichia coli, UniProt P0A7A9)	enzyme activity, inhibitor				IC50	> 100 µM
Oc1ccc(C2CC(Nc3ccc(-c4ccc(NC5=NOC(c6ccc(O)cc6)C5)cc4)cc3)=NO2)cc1 (stereo not shown)		carrageenan paw oedema	albino rat	oral, 50 mg/kg, 3 h		inhibition	24.3%
COc1cnc2cccc(N3CCc4c(cc(Cn5ccnc5)cc4-c4cn(C)nc4C(F)(F)F)C3=O)c2c1			BALB/c nude mice, MV4-11 xenograft	intraperitoneal, 75 mg/kg, day 21		tumour volume	122 mm3 and 124 mm3 and 99 mm3 and 145 mm3 and 147 mm3
COc1cc(O)ccc1CCC(c1ccc(O)cc1)c1cc2c(c(C)c1O)OC(c1ccc(O)cc1)CC2 (mixture of isomers)			human blood	10 µM, added: A23187		15-HETE level	397 ± 192 pg/mL
C#CCOc1ccc(C=NOCc2ccc(-c3nc4cc(-c5ccccc5)ccn4c3Nc3ccc(C(=O)O)cc3)cc2)cc1 (mixture of isomers)	TDP1	enzyme activity, inhibitor		100 µM, unpurified compound		inhibition	47.3%
COCCOCCOCCNC(=O)Cc1cc(CC(=O)N[C@H]2C[C@H]3C(=O)Nc4cc(OCCOCCOCCOC)cc(n4)C(=O)N4CCC[C@H]4C(=O)Nc4cc(OCCOCCOCCOC)cc(n4)C(=O)N4CCC[C@H]4C(=O)Nc4cc(OCCOCCOCCOC)cc(n4)C(=O)N3C2)cc(CC(=O)N[C@H]2C[C@H]3C(=O)Nc4cc(OCCOCCOCCOC)cc(n4)C(=O)N4CCC[C@H]4C(=O)Nc4cc(OCCOCCOCCOC)cc(n4)C(=O)N4CCC[C@H]4C(=O)Nc4cc(OCCOCCOCCOC)cc(n4)C(=O)N3C2)c1		anion binding, ITC	water	298 K, added: sodium iodide		TΔS	4.16 ± 0.191 kcal/mol

Excerpt of the above:
SMILES	tested on	test	system	setting	scale	measurement	result
COc1cnc2cccc(N3CCc4c(cc(Cn5ccnc5)cc4-c4cn(C)nc4C(F)(F)F)C3=O)c2c1			BALB/c nude mice, MV4-11 xenograft	intraperitoneal, 75 mg/kg, day 21		tumour volume	122 mm3 and 124 mm3 and 99 mm3 and 145 mm3 and 147 mm3
COc1ccc(C(=O)CCc2cc(C(CCc3ccc(O)cc3OC)c3ccc(O)cc3)c(O)cc2OC)cc1 (racemic)			human blood	0.3 µM, added: A23187		15-HETE level	223 ± 52 pg/mL
CC[C@H](C)[C@@H](C(=O)N[C@@H](CC(C)C)C(=O)N[C@@H](CO)C(=O)N[C@@H](CO)C(=O)N[C@H](C(=O)N[C@@H](CCC(=O)O)C(=O)N[C@H](C(=O)NCC(=O)N[C@@H](CO)C(=O)N[C@@H](CC(N)=O)C(=O)N[C@H](C(=O)N1C[C@H](O)C[C@H]1C(N)=O)[C@@H](C)O)C(C)C)[C@@H](C)O)N(C)C(=O)[C@H](C)NC(=O)CN(C)C(=O)[C@H](Cc1ccccc1)NC(=O)[C@H](CO)NC(=O)[C@H](CO)NC(=O)[C@H](CCCNC(=N)N)NC(=O)[C@H](CC(N)=O)NC(=O)[C@H](CC(C)C)NC(=O)[C@H](Cc1ccccc1)NC(=O)[C@H](Cc1c[nH]cn1)NC(=O)[C@H](C)NC(=O)[C@H](CC(C)C)NC(=O)[C@H](CCCNC(=N)N)NC(=O)[C@H](CCC(=O)O)NC(=O)[C@@H](NC(=O)[C@H](C)NC(=O)[C@@H]1CSSC[C@H](NC(=O)[C@H](CCCNC(=N)N)NC(=O)CC[C@H](NC(=O)CCCCCCCCCCCCCCCCCCC(=O)O)C(=O)O)C(=O)NCC(=O)N[C@@H]([C@@H](C)O)C(=O)N[C@@H](C)C(=O)N[C@@H]([C@@H](C)O)C(=O)N1)[C@@H](C)O			male Sprague-Dawley rats	subcutaneous, 30 nmol/kg single dose, 24 h	reference: vehicle	food intake	76.8 ± 1%
